Experimental data pooled from the literature.
Protocols differ between the studies behind these lines. ± marks the error that the study gave.
rep methyltransferase: Replicase polyprotein 1ab, methyltransferase (rep, Severe acute respiratory syndrome coronavirus 2, UniProt P0DTD1)
rep nsp13 helicase: Replicase polyprotein 1ab, nsp13 helicase (rep, Severe acute respiratory syndrome coronavirus 2, UniProt P0DTD1)
rep papain-like protease: Replicase polyprotein 1ab, papain-like protease (rep, Severe acute respiratory syndrome coronavirus 2, UniProt P0DTD1)
rep main protease: Replicase polyprotein 1ab, main protease (rep, Severe acute respiratory syndrome coronavirus 2, UniProt P0DTD1)
Spike glycoprotein: Spike glycoprotein (Severe acute respiratory syndrome coronavirus 2, UniProt P0DTC2)
rep nsp14: Replicase polyprotein 1ab, nsp14 (rep, Severe acute respiratory syndrome coronavirus 2, UniProt P0DTD1)

Molecule	target or system	test	system	conditions	measurement	result
Cc1cc(-c2ccc(/N=N/c3ccc4c(S(=O)(=O)O)cc(S(=O)(=O)O)c(N)c4c3O)c(C)c2)ccc1/N=N/c1ccc2c(S(=O)(=O)O)cc(S(=O)(=O)O)c(N)c2c1O	rep methyltransferase	enzyme activity, inhibitor		pH 7.5	IC50	< 10 µM
CCCCn1c(NS(=O)(=O)c2ccc(C)cc2)c(S(=O)(=O)c2ccccc2)c2nc3ccccc3nc21	rep nsp13 helicase	helicase ATPase activity, inhibitor, Kinase-Glo luminescence		60 min, with: 2.5 µM ATP	IC50	3 µM
CCC(C(=O)Nc1cc(NC2CCNC2)ccc1C)n1cc(Cl)cc2nc(SCc3ccc(F)cc3)nc1-2 (stereo not shown)	rep papain-like protease	enzyme activity, inhibitor			IC50	0.074 µM
CCn1c[n+](CC)c2ccc(OC)cc21.[Cl][Ag]	rep main protease	enzyme activity, inhibitor			IC50	> 50 µM
CCOc1cccc(C2C(C(=O)c3ccc(C)o3)=C(O)C(=O)N2Cc2ccccc2)c1 (stereo not shown)	rep nsp13 helicase	helicase ATPase activity, inhibitor, Kinase-Glo luminescence		60 min, with: 2.5 µM ATP	IC50	40 µM
Cn1cnc(Cn2c(=O)[nH]/c(=N\c3cc4cn(C)nc4cc3Cl)n(Cc3cc(F)c(F)cc3F)c2=O)n1			human, mild renal impairment	oral, 375 mg	anaemia TEAE, Mild severity	12.5%
Cc1cc(Nc2ncc(Cl)c(Nc3ccccc3S(=O)(=O)C(C)C)n2)c(OC(C)C)cc1C1CCNCC1	rep papain-like protease	inhibitor			IC50	106 µM
CCC(C(=O)Nc1cc(NC2CNC2)ccc1C)n1cc(Cl)cc2nc(SCc3ccc(F)cc3)nc1-2 (stereo not shown)	rep papain-like protease	enzyme activity, inhibitor			IC50	0.095 µM
N#Cc1ccc(N2N=C3c4ccc(O)cc4CCC3C2C2CCCC2)cc1Cl (stereo not shown)	rep methyltransferase	enzyme activity, inhibitor			IC50	5.01 µM
COc1cc(/C=C/C(=O)Nc2nc3ccc(S(=O)(=O)N(C)C)cc3s2)cc(OC)c1OC	rep nsp13 helicase	helicase ATPase activity, inhibitor, Kinase-Glo luminescence			IC50	33 µM
O=C(/C=C/c1ccc(O)c(O)c1)OC[C@H]1O[C@@H](OCCc2ccc(O)c(O)c2)[C@H](O)[C@@H](O)[C@@H]1O	Spike glycoprotein	binding, BLI			Kd	11 µM
CCC(C(=O)Nc1cc(NC2CCOC2)ccc1C)n1cc(Br)cc2nc(SCc3ccc(F)cc3)nc1-2 (stereo not shown)	rep papain-like protease	enzyme activity, inhibitor			IC50	0.511 µM
CC(=O)Oc1cc2c(s1)CCN(C(C(=O)C1CC1)c1ccccc1F)C2 (stereo not shown)	rep nsp14	inhibitor			IC50	25.8 to 36.6 µM
Cc1c(S(=O)(=O)N2CCC(C)CC2)cc(C(=O)NCc2cccnc2N2CCC2)n1C	rep nsp14	inhibitor			IC50	0.044 µM
CC[C@H](C)[C@H](NC(=O)[C@H](CC(C)C)NC(=O)[C@H](Cc1c[nH]c2ccccc12)NC(=O)[C@H](CCC(N)=O)NC(=O)[C@@H](NC(=O)[C@H](Cc1ccccc1)NC(=O)[C@H](C)NC(=O)[C@H](CCCCNC(=O)COCCOCCNC(=O)COCCOCCNC(=O)CC[C@H](NC(=O)CCCCCCCCCCCCCCCCCCC(=O)O)C(=O)O)NC(=O)[C@H](CCC(N)=O)NC(=O)[C@H](C)NC(=O)[C@@H](NC(=O)[C@H](CCCCN)NC(=O)[C@H](CC(=O)O)NC(=O)[C@H](CC(C)C)NC(=O)C(C)(C)NC(=O)[C@@H](NC(=O)[C@H](CO)NC(=O)[C@H](Cc1ccc(O)cc1)NC(=O)[C@H](CC(=O)O)NC(=O)[C@H](CO)NC(=O)[C@@H](NC(=O)[C@H](Cc1ccccc1)NC(=O)[C@@H](NC(=O)CNC(=O)[C@H](CCC(=O)O)NC(=O)C(C)(C)NC(=O)[C@@H](N)Cc1ccc(O)cc1)[C@@H](C)O)[C@@H](C)O)[C@@H](C)CC)[C@@H](C)CC)C(C)C)C(=O)N[C@@H](C)C(=O)NCC(=O)NCC(=O)N1CCC[C@H]1C(=O)N[C@@H](CO)C(=O)N[C@@H](CO)C(=O)NCC(=O)N[C@@H](C)C(=O)N1CCC[C@H]1C(=O)N1CCC[C@H]1C(=O)N1CCC[C@H]1C(=O)N[C@@H](CO)C(N)=O			healthy subjects, single ascending dose	0.5 mg, baseline	serum AST	23 ± 6.5 U/L
verteporfin	rep main protease	enzyme activity, inhibitor	SARS-CoV-2		IC50	22.9 ± 9.32 µM
CC1=C(C#N)C(=O)N(C2CCS(=O)(=O)C2)C(=O)/C1=C\c1ccco1 (stereo not shown)	rep nsp13 helicase	helicase ATPase activity, inhibitor, Kinase-Glo luminescence			IC50	74 µM

Molecule	target or system	test	system	conditions	measurement	result
Cc1cc(SCc2sc(-c3ccc(C(F)(F)F)c(F)c3)nc2C)ccc1OCC(=O)O	rep main protease	3CL protease activity, inhibitor			IC50	22.3 µM
Cc1ccccc1NC(=O)C(C)n1c(SCc2ccc(F)cc2)nc2cccnc21 (stereo not shown)	rep papain-like protease	enzyme activity, inhibitor			IC50	> 20 µM
CC1CC(c2ccc(C(=O)O)cc2)=NN1c1cccc(Cl)c1 (stereo not shown)	rep methyltransferase	enzyme activity, inhibitor			IC50	7.94 µM
Cc1ccc(C2CC(=O)N3CN(c4ccc(Br)cc4)CSC3=C2C#N)o1 (stereo not shown)	rep nsp13 helicase	helicase ATPase activity, inhibitor, Kinase-Glo luminescence		60 min, with: 2.5 µM ATP	IC50	66 µM
O=c1cc(-c2ccc(O)cc2)oc2cc(O)cc(O)c12	rep main protease	enzyme activity, inhibitor		with: fluorogenic substrate	IC50	38.8 ± 1.65 µM
CC(=O)NC1=NC(=O)/C(=C/c2cc(C)n(-c3cccc(C(=O)O)c3)c2C)S1	rep nsp13 helicase	helicase ATPase activity, inhibitor, Kinase-Glo luminescence			IC50	> 150 µM
Nc1ncnc2c([C@@H]3N[C@H](CO)[C@@H](O)[C@H]3O)c[nH]c12	Japanese encephalitis virus	viral replication, inhibitor	Vero 76	94.7 µM	inhibition	104%
CCC[C@H](NC(=O)[C@H](CC(C)C)NC(=O)OCc1ccccc1)C(=O)C(=O)NCc1ccccc1	rep main protease	enzyme activity, inhibitor, FRET		pH 6.5	IC50	64.5 µM
CC(=O)c1cccc(NC(=O)c2cc3c(=O)n4ccccc4nc3n2C)c1	rep main protease	3CL protease activity			IC50	5.43 µM
Cc1ccc2nc(N3C(=O)C(O)=C(C(=O)c4ccco4)C3c3ccc(O)cc3)sc2c1 (stereo not shown)	rep nsp13 helicase	helicase ATPase activity, inhibitor, Kinase-Glo luminescence		60 min, with: 2.5 µM ATP	IC50	18 µM
O=c1cc(-c2ccc(O)c(O)c2)oc2cc(O)cc(O)c12	rep methyltransferase	enzyme activity, inhibitor			IC50	126 µM
CC(C)=CCc1c(O)ccc(C(=O)/C=C/c2ccc(O)cc2)c1O	Spike glycoprotein	binding, BLI			Kd	8.8 µM
CC(C)n1c[n+](C(C)C)c2ccccc21.[Ag][I]	rep main protease	enzyme activity, inhibitor			IC50	> 50 µM
Cl.Cl.Cl.Cl.Cl.Cl.N.N.N.N.N.N.N.N.N.N.N.N.N.N.[O-2].[O-2].[Ru+3].[Ru+3].[Ru+4]	rep methyltransferase	enzyme activity, inhibitor		pH 7.5	IC50	< 10 µM
COc1ccc(-c2csc3nc(-c4ccc(C)cc4)oc(=O)c23)cc1OC	rep nsp13 helicase	helicase ATPase activity, inhibitor, Kinase-Glo luminescence			IC50	86 µM
N#Cc1ccc(N2N=C(c3ccc(C(=O)O)cc3)CC2C2CCCCC2)cc1Cl (stereo not shown)	rep methyltransferase	enzyme activity, inhibitor			IC50	> 100 µM
Cn1cc(C(=O)Nc2nc(-c3ccccn3)cs2)c2ccccc2c1=O	rep methyltransferase	enzyme activity, inhibitor			IC50	123 µM

A few entries again:
Molecule	target or system	test	system	conditions	measurement	result
Cc1ccccc1NC(=O)C(C)n1c(SCc2ccc(F)cc2)nc2cccnc21 (stereo not shown)	rep papain-like protease	enzyme activity, inhibitor			IC50	> 20 µM
CC1CC(c2ccc(C(=O)O)cc2)=NN1c1cccc(Cl)c1 (stereo not shown)	rep methyltransferase	enzyme activity, inhibitor			IC50	7.94 µM
Cc1ccc(C2CC(=O)N3CN(c4ccc(Br)cc4)CSC3=C2C#N)o1 (stereo not shown)	rep nsp13 helicase	helicase ATPase activity, inhibitor, Kinase-Glo luminescence		60 min, with: 2.5 µM ATP	IC50	66 µM
O=c1cc(-c2ccc(O)cc2)oc2cc(O)cc(O)c12	rep main protease	enzyme activity, inhibitor		with: fluorogenic substrate	IC50	38.8 ± 1.65 µM
CC(=O)NC1=NC(=O)/C(=C/c2cc(C)n(-c3cccc(C(=O)O)c3)c2C)S1	rep nsp13 helicase	helicase ATPase activity, inhibitor, Kinase-Glo luminescence			IC50	> 150 µM
